Experimental data from different studies.
Parts stem from different laboratories: compare values within a part only. Substitutions count along the parent as printed.
Chain of UniProt Q02156 (whole entry, looked up): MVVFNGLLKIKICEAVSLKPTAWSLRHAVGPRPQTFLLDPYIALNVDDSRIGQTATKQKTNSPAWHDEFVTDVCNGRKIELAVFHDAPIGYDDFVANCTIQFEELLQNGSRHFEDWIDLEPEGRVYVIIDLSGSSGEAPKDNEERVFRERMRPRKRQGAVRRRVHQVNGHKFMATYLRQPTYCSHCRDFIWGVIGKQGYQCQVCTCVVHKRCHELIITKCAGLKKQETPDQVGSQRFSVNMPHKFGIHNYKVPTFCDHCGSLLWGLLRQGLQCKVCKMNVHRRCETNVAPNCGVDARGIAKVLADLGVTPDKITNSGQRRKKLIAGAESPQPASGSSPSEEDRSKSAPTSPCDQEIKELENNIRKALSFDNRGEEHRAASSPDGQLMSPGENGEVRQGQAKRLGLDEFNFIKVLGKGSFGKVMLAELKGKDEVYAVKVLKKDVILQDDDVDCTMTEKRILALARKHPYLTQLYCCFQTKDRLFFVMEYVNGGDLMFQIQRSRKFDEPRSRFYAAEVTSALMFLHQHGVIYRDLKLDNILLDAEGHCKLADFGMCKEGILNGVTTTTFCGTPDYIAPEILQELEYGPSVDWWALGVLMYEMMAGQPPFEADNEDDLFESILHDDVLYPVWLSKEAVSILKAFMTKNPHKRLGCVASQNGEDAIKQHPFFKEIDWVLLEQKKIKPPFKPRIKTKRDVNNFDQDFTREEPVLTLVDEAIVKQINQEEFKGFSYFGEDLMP
Chain of UniProt P32298 (whole entry, looked up): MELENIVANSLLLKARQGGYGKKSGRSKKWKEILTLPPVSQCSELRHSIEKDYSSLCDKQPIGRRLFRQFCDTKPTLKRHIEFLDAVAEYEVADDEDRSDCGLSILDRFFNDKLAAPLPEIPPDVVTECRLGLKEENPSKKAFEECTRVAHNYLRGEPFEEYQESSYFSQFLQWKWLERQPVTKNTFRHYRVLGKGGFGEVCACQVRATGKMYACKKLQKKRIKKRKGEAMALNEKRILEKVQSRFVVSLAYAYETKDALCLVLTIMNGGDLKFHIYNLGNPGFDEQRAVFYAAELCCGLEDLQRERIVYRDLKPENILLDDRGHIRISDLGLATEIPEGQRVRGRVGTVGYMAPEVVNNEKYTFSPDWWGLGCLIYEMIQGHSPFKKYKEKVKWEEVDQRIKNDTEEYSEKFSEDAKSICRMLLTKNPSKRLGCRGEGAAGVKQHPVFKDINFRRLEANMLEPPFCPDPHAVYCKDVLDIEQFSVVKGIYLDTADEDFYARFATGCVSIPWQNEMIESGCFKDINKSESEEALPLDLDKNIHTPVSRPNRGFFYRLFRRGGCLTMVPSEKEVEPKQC
Chain of UniProt P41240 (whole entry, looked up): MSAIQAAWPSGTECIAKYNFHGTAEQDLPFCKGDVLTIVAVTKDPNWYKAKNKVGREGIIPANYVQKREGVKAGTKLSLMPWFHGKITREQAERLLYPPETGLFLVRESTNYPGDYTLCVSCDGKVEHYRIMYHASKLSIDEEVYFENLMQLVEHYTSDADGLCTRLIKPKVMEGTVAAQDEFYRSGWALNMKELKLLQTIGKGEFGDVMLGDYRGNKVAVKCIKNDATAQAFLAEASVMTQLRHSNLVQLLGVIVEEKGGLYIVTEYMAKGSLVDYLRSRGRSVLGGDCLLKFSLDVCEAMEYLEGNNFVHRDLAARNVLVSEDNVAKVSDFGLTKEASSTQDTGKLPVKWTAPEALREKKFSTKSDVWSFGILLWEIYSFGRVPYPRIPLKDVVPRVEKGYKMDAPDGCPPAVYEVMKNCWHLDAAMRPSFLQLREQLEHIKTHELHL
Chain of UniProt P11802 (whole entry, looked up): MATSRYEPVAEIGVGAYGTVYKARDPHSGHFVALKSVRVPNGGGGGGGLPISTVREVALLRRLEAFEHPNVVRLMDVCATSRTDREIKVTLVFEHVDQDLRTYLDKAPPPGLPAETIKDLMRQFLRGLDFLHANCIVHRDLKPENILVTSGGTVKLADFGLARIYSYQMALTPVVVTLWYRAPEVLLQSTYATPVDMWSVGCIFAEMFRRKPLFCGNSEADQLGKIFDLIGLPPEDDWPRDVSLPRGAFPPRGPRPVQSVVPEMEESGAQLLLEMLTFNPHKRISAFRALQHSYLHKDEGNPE
Chain of UniProt Q04912 (whole entry, looked up): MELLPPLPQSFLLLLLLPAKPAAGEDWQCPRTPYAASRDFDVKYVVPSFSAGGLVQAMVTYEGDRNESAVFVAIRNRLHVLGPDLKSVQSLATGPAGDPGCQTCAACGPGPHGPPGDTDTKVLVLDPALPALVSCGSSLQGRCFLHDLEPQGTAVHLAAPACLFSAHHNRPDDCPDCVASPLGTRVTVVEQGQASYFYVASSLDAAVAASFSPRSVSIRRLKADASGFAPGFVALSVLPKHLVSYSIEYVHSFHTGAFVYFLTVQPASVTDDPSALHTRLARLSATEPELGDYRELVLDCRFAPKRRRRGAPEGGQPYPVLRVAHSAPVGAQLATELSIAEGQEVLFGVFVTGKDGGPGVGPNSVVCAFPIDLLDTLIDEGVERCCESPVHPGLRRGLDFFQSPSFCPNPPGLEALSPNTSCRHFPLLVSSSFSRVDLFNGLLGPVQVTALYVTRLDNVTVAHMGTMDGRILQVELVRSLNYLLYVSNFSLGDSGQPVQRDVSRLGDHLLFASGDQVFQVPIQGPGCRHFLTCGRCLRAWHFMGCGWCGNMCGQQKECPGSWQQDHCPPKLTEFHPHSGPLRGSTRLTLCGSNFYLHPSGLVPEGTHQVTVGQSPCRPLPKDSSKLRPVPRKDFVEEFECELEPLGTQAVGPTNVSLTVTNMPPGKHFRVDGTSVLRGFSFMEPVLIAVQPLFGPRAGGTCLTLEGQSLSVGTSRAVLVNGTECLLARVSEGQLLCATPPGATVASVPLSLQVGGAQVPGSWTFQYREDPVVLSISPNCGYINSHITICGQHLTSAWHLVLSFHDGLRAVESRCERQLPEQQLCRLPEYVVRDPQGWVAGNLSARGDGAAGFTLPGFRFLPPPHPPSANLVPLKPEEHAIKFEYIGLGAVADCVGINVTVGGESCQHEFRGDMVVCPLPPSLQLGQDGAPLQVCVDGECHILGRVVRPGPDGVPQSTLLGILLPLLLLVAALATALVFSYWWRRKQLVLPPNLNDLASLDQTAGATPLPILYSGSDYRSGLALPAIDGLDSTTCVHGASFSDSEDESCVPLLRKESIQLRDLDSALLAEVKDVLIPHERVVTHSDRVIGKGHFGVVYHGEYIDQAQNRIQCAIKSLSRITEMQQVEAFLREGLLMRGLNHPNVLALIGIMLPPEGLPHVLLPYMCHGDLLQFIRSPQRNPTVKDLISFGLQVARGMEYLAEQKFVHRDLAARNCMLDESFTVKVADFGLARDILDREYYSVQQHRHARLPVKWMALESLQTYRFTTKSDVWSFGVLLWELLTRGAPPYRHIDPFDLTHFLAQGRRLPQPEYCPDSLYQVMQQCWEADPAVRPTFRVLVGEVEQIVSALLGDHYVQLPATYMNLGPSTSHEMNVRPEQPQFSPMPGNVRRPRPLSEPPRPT
Chain of UniProt O15530 (whole entry, looked up): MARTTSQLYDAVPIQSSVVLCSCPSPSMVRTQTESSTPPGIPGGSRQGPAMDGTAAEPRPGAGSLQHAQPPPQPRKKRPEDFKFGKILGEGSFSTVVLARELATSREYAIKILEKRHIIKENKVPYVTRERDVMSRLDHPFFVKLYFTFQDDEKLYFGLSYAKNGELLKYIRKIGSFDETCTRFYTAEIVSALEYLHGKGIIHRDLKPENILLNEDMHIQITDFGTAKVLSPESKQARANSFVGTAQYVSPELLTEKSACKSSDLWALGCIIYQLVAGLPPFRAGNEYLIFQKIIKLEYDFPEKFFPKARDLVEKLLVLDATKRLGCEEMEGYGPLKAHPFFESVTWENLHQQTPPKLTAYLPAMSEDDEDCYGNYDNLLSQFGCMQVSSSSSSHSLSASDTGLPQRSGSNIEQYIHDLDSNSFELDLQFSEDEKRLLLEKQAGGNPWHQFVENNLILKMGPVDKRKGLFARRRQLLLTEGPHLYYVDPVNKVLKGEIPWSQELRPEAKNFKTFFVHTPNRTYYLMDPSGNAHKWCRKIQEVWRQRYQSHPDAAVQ

Series 1 — observed: enzyme activity; mode: inhibitor; tested at: 0.5 µM; baseline: control
Target: Tyrosine-protein kinase Lck (LCK, Homo sapiens, UniProt P06239)
Chain of UniProt P06239 (whole entry, looked up): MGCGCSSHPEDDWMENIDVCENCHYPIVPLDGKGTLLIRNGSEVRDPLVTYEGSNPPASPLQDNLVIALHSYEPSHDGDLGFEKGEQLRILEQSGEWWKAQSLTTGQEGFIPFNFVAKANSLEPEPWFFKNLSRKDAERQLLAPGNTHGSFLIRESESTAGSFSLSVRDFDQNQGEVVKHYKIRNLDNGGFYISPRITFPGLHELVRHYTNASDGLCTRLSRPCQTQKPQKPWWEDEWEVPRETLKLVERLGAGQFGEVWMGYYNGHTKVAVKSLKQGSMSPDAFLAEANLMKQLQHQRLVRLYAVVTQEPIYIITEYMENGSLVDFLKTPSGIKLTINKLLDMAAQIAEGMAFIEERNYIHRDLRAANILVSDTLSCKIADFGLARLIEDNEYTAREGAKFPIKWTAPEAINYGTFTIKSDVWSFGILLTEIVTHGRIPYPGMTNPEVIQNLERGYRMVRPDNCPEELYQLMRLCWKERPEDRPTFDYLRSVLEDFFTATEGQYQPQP
SMILES	remaining activity [%]
Nc1[nH]nc2nc3ccccc3nc12	93.6
O=C1NC(=O)C(c2cn(CCCn3ccnc3)c3ccccc23)=C1Nc1ccccc1	99.4
COc1ccc(CNC(=O)Nc2ncc([N+](=O)[O-])s2)cc1	101
OCC(O)CCON=C1C(c2c(O)[nH]c3ccccc23)=Nc2ccccc21 (stereo not shown)	29.7
O=C(O)c1ccc2c3c1cccc3c(=O)n1c3ccccc3nc21	101
Cc1nc(-c2ccccc2)c(-c2ccncc2)o1	99.7
O=S(=O)(c1cccc2cnccc12)N1CCCNCC1	101
COc1ccc(OC)c2c(=S)c3ccccc3[nH]c12	94.7
Cn1sc(=O)n(Cc2ccccc2)c1=O	103
COc1ccc(C(=O)Nc2sc3c(c2C(N)=O)CCCC3)cc1OC	93.8
Nc1ccc2ncnc(NCCc3ccc(Oc4ccccc4)cc3)c2c1	98.3
CO[C@H]1C[C@@H]2CC[C@@H](C)[C@@](O)(O2)C(=O)C(=O)N2CCCC[C@H]2C(=O)O[C@H]([C@H](C)C[C@@H]2CC[C@@H](O)[C@H](OC)C2)CC(=O)[C@H](C)/C=C(\C)[C@@H](O)[C@@H](OC)C(=O)[C@H](C)C[C@H](C)/C=C/C=C/C=C/1C	99.4
CCOC(=O)c1c(C)[nH]c(/C=C2\C(=O)Nc3ccccc32)c1C	88.2
Cc1ccc(Nc2nccc(N(C)c3ccc4c(C)n(C)nc4c3)n2)cc1S(N)(=O)=O	43.3

Series 2 — technique: protein-binding microarray; form: hairpin DNA; medium: in vitro; tested at: not given; baseline: not given; reading: higher = stronger binding
Target: FOXO3, forkhead domain (mouse, UniProt Q9WVH4, residues 31-263)
Chain of UniProt Q9WVH4 (31-263, looked up): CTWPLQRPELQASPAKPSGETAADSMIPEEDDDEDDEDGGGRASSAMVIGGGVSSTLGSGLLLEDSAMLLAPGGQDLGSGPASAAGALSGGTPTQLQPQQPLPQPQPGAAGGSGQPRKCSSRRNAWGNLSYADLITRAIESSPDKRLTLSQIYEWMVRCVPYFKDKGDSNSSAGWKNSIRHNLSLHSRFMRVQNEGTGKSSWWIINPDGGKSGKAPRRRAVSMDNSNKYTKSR
Notes: whole hairpin DNA, median over replicate spots
Strand	median fluorescence [a.u.]
GAGGCCATGTAAAGAACGCCTCCTGGCGTTCTTTACATGGCCTCACACTC (5mC at 31)	3490
GAGGCCATGTAACCGACGCCTCCTGGCGTCGGTTACATGGCCTCACACTC (5mC at 30)	4190
GAGGCCATGTAACGAACGCCTCCTGGCGTTCGTTACATGGCCTCACACTC (5mC at 13 31)	3960
GAGGCCCGGTAAACAACGCCTCCTGGCGTTGTTTACCGGGCCTCACACTC (5mC at 37)	6120
GAGGCCATGCAAACGACGCCTCCTGGCGTCGTTTGCATGGCCTCACACTC (5mC at 14)	4570
GAGGCCATTTAACCAACGCCTCCTGGCGTTGGTTAAATGGCCTCACACTC	3520
GAGGCCATCGAAACAACGCCTCCTGGCGTTGTTTCGATGGCCTCACACTC (5mC at 9 35)	4040
GAGGCCATGCCGACAACGCCTCCTGGCGTTGTCGGCATGGCCTCACACTC (5mC at 11)	4540

Series 3 — technique: competition with immobilised ligand; tested at: 1 µM
SMILES: CC(=O)Nc1c(C(C)=O)c(=O)n(C)c2nc(-c3ccc(Cl)cc3Cl)c(-c3ccc(Cl)cc3)cc12
target	assay	remaining binding [%]
MST1R (Homo sapiens, UniProt Q04912)	cell-free assay	100
PDPK1 (Homo sapiens, UniProt O15530)	cell-free assay	100
NEK1 (Homo sapiens, UniProt Q96PY6)	cell-free assay	100
Tyrosine-protein kinase ABL1, phosphorylated (ABL1, Homo sapiens, UniProt P00519, E255K)	binding	94
MAP2K5 (Homo sapiens, UniProt Q13163)	cell-free assay	94
CDK3 (Homo sapiens, UniProt Q00526)	cell-free assay	100
Cyclin-dependent kinase 4, with cyclin D1 (CDK4, Homo sapiens, UniProt P11802)	cell-free assay	100
LCK (Homo sapiens, UniProt P06239)	cell-free assay	100
GRK4 (Homo sapiens, UniProt P32298)	cell-free assay	100
PRKCE (Homo sapiens, UniProt Q02156)	binding	48
CSK (Homo sapiens, UniProt P41240)	cell-free assay	100
COQ8B (Homo sapiens, UniProt Q96D53)	cell-free assay	100
MAP3K9 (Homo sapiens, UniProt P80192)	cell-free assay	100

Series 4 — target: NFE2L2, bZIP domain (human); technique: DHFR protein complementation; medium: yeast; baseline: wild-type JUN-FOS pair; reading: higher = stronger binding
Notes: single substitutions, most at no-binding floor
Parent: JUN, bZIP domain (human); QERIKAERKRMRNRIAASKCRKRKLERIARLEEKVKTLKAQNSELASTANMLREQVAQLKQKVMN; partner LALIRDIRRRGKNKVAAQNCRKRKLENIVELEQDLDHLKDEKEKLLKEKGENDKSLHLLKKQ
Change	binding fitness [natural log]
E33C	-1.43
E54I	-1.59
A29G	-1.4
E54W	-1.43
A29K	-1.22
E54V	-1.51
E54L	-1.4
K39I	-1.22
